Experimental data pooled from the literature.
Numbered parts are unrelated; each lists some results of a single study. Several values in a cell are separate wells, animals, samples, runs or records.
Sequence of UniProt P41143 (whole entry, looked up): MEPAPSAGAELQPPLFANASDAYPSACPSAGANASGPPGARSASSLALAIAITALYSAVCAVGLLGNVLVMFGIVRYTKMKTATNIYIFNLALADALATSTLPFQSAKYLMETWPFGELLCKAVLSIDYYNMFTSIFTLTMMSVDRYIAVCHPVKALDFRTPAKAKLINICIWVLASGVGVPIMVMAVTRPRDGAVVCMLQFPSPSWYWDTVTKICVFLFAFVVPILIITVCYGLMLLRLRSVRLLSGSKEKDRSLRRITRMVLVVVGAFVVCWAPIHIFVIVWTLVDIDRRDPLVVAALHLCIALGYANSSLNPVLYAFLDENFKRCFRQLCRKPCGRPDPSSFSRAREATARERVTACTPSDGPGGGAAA
Sequence of UniProt Q15139 (whole entry, looked up): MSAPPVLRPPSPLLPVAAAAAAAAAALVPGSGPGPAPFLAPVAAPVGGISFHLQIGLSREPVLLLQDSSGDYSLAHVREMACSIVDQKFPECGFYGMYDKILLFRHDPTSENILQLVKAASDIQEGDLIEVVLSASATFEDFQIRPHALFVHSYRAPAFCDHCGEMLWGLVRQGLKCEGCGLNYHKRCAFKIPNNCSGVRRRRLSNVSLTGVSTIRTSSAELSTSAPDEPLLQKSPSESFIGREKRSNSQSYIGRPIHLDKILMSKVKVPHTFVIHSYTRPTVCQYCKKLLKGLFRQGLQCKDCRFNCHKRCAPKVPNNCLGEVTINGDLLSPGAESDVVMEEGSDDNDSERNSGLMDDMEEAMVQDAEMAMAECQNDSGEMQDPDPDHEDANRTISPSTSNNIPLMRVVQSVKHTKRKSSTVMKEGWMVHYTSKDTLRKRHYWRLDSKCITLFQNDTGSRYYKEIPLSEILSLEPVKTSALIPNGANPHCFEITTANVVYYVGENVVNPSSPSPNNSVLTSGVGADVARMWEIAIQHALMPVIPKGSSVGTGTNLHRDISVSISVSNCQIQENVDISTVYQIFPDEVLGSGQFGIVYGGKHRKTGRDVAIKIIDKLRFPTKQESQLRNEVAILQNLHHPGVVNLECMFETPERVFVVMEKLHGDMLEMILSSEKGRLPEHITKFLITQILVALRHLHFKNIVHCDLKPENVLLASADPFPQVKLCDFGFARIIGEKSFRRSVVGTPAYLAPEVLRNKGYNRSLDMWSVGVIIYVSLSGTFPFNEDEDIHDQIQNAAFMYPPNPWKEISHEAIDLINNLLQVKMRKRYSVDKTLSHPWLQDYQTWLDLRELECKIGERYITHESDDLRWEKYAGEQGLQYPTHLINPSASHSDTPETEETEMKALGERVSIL
Sequence of UniProt O75116 (whole entry, looked up): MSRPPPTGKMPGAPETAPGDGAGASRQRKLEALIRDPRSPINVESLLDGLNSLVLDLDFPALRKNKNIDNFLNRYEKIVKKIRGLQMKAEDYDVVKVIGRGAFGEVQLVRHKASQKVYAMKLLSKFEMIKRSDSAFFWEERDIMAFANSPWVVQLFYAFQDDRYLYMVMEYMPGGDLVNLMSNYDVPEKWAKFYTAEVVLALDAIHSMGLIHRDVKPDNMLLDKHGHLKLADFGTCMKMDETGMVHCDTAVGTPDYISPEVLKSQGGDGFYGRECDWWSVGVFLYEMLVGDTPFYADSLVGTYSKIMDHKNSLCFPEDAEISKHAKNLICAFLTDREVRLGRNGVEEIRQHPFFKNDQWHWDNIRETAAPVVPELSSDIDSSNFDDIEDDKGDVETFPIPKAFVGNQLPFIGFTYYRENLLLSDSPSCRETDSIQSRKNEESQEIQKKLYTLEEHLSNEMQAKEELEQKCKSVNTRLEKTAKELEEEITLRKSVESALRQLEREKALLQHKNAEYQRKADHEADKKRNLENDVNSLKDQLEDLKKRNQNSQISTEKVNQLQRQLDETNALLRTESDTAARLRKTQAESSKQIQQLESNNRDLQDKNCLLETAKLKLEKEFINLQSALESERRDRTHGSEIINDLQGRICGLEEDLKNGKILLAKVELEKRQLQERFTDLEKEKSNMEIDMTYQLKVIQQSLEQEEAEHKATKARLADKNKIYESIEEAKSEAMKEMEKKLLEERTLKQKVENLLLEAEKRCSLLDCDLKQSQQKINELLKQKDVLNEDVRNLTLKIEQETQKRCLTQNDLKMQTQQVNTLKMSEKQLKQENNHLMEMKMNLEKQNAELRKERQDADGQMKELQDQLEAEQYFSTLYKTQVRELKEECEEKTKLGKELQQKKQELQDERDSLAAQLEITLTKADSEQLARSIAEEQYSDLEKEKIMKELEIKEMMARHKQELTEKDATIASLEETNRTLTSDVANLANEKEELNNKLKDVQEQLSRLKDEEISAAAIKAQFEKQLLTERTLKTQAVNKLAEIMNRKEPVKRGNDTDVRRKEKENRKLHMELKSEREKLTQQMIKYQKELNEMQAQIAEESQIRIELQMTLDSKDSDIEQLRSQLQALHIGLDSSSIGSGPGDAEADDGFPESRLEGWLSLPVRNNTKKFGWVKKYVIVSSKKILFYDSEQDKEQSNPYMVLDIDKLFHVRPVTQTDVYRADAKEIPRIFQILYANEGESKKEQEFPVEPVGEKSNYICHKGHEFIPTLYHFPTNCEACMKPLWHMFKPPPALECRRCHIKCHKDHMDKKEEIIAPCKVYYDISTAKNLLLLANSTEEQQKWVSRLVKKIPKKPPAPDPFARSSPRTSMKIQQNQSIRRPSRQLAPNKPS
Sequence of UniProt Q14289 (whole entry, looked up): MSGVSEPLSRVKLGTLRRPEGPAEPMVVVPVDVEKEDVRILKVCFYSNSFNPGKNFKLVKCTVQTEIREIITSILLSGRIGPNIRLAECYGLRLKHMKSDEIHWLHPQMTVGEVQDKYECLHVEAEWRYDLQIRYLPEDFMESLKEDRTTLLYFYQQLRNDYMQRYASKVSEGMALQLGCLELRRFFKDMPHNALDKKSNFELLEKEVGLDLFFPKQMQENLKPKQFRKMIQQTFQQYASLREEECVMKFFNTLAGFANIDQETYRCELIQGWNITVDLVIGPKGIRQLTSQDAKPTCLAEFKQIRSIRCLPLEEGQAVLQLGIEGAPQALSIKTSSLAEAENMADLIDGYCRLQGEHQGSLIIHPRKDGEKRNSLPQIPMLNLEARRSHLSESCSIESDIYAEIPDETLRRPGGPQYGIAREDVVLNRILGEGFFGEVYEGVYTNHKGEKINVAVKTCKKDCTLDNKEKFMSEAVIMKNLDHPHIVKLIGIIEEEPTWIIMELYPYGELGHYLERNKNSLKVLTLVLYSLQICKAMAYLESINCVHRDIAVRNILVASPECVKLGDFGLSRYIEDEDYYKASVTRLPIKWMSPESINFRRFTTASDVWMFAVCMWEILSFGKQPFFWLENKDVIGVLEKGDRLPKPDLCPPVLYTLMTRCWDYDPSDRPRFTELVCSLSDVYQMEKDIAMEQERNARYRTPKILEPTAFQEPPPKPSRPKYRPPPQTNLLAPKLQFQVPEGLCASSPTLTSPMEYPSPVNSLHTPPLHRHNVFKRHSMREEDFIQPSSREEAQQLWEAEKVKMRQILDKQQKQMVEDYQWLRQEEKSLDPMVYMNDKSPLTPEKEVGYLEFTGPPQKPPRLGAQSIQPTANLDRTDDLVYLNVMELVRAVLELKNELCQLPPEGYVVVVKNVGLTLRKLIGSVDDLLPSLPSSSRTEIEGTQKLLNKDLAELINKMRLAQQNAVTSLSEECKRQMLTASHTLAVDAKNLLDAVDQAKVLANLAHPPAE
Sequence of UniProt P50613 (whole entry, looked up): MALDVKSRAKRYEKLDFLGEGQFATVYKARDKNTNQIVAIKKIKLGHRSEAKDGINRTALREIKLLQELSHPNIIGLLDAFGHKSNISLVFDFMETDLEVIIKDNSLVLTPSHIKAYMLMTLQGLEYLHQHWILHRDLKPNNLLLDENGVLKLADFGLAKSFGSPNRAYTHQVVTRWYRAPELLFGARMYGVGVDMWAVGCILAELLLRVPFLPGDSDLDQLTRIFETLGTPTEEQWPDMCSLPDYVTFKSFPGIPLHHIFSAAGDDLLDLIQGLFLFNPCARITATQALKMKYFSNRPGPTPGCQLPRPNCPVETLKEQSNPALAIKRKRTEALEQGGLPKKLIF
Sequence of UniProt P41279 (whole entry, looked up): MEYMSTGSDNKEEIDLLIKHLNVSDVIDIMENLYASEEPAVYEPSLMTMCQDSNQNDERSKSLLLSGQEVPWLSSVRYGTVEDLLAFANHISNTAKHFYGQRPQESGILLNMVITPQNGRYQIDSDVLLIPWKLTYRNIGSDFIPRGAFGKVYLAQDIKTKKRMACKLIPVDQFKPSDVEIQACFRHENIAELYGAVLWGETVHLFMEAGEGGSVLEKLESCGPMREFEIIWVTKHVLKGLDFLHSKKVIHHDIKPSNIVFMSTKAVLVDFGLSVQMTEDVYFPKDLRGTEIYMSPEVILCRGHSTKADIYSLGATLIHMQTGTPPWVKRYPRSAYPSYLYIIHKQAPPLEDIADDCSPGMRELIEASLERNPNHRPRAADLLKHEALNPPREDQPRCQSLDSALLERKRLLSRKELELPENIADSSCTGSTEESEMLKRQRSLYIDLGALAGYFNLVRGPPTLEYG

Block 1
Target: Calcium/calmodulin-dependent protein kinase type II subunit alpha (CAMK2A, Homo sapiens, UniProt Q9UQM7)
Sequence of UniProt Q9UQM7 (whole entry, looked up): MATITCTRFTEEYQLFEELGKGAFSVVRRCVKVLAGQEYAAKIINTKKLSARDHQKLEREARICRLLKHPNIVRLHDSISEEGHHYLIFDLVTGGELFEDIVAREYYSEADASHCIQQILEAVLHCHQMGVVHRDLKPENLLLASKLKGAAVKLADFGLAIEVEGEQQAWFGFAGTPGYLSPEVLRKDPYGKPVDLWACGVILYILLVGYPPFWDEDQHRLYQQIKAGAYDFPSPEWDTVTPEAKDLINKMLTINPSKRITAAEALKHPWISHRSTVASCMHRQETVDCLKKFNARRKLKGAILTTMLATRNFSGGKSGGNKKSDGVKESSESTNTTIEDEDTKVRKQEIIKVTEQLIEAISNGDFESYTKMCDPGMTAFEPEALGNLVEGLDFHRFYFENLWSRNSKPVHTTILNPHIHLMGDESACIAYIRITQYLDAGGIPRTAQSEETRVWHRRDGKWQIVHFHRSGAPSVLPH
Effect on: enzyme activity
Action: inhibitor
Concentration: 10 µM
Structure (SMILES) | inhibition [%]
CCCC(=O)c1c(O)c(CC2=C(O)C(C)(C)C(=O)C(C(C)=O)=C2O)c(O)c(Cc2c(O)c(CC3=C(O)C(C)(C)C(=O)C(C(C)=O)=C3O)c(O)c(C(=O)CCC)c2O)c1O | -59
C=Cc1cc(O)cc2ccc3c(C)c(O)ccc3c12 | 46
O=C1C=C2C(=CCOC2O)O1 (stereo not drawn) | -5
CC(C)=CCOc1c2occc2cc2ccc(=O)oc12 | 7
C[C@@H]1O[C@@H](O[C@H]2C[C@@H](O)[C@]3(CO)[C@H]4[C@H](O)C[C@]5(C)[C@@H](C6=CC(=O)OC6)CC[C@]5(O)[C@@H]4CC[C@]3(O)C2)[C@H](O)[C@H](O)[C@H]1O | -4
CC(C)[C@@H]1[C@H]2OC(=O)[C@@H]1[C@@H]1CC[C@@H]3CN(C)[C@H]2[C@@]31C | -32
COc1ccc2c(c1O)-c1c(OC)c(OC)cc3c1[C@H](C2)N(C)CC3 | 0
CC(=O)[C@H]1CC[C@H]2[C@@H]3C[C@H](O)[C@H]4C[C@@H](O)CC[C@]4(C)[C@H]3CC[C@]12C | -24

Block 2
Cell line: mouse MPNST tumor cells
Technique: high-content immunofluorescence imaging
Refers to: nuclear SOX9
Concentration: 10 µM
Time: 12 h
Notes: mean of 2 replicates
Reference: DMSO control
Reading: higher = more nuclear SOX9
Compound | nuclear SOX9 intensity
O=C1CN(Cc2ccc(-c3ccc(F)c(CN4CCS(=O)(=O)CC4)n3)cc2)C(=O)N1C1CC1 | 92.2 % of DMSO
CNC(C)(C)Cc1ccccc1 | 96.2 % of DMSO
C=C1C[C@@H]2[C@H](CC[C@]3(C)C(=O)CC[C@@H]23)[C@@]2(C)C=CC(=O)C=C12 | 68.6 % of DMSO and 80.5 % of DMSO
C[C@@H]1CC[C@H]2[C@@H](C)C(=O)O[C@@H]3O[C@@]4(C)CC[C@@H]1[C@]32OO4 | 99.3 % of DMSO and 96.2 % of DMSO
CN(C)C(=O)Oc1cc(OC(=O)N(C)C)cc(C(O)CNC(C)(C)C)c1 (stereo not drawn) | 95.8 % of DMSO
Oc1ccc2c3c1O[C@H]1[C@@H](O)CC[C@@]4(O)[C@@H](C2)N(CC2CCC2)CC[C@]314 | 95.5 % of DMSO
C[N+]1([O-])C2CC(OC(=O)C(CO)c3ccccc3)CC1C1OC12 (stereo not drawn) | 100 % of DMSO
Cc1nnc2ccc(-c3cccc(C(F)(F)F)c3)nn12 | 120 % of DMSO

Block 3
SMILES: O=C1NC(=O)c2c1c1c3ccccc3n3c1c1c2c2ccccc2n1[C@H]1CC[C@@H]3O1
Effect on: enzyme activity
Action: inhibitor
Concentration: 0.5 µM
Reference: control
target | remaining activity [%]
PRKD1 (Homo sapiens, UniProt Q15139) | 1.89
ROCK2 (Homo sapiens, UniProt O75116) | 73.7
Cyclin-dependent kinase 2, with cyclin A (CDK2, Homo sapiens, UniProt P24941) | 15.6
DYRK4 (Homo sapiens, UniProt Q9NR20) | 87.8
HIPK3 (Homo sapiens, UniProt Q9H422) | 49.9
Aurora kinase A (AURKA, Homo sapiens, UniProt O14965) | 22.3
MAPK10 (Homo sapiens, UniProt P53779) | 138
PTK2B (Homo sapiens, UniProt Q14289) | 41.5
CSNK2A2 (Homo sapiens, UniProt P19784) | 4.47
CDK7 (Homo sapiens, UniProt P50613) | 80.4
CAMK1D (Homo sapiens, UniProt Q8IU85) | 33.6
MAP3K2 (Homo sapiens, UniProt Q9Y2U5) | 14
RET (Homo sapiens, UniProt P07949) | 3.21
SLK (Homo sapiens, UniProt Q9H2G2) | 26
GRK5 (Homo sapiens, UniProt P34947) | 88.7
CAMK1G (Homo sapiens, UniProt Q96NX5) | 56.5
BRSK1 (Homo sapiens, UniProt Q8TDC3) | 14.8
NEK9 (Homo sapiens, UniProt Q8TD19) | 23.4
ROS1 (Homo sapiens, UniProt P08922) | 1.6
NTRK3 (Homo sapiens, UniProt Q16288) | 1.41
MAP3K8 (Homo sapiens, UniProt P41279) | 94.6
PKN2 (Homo sapiens, UniProt Q16513) | 15.9
DMPK (Homo sapiens, UniProt Q09013) | 98.8
EGFR (Homo sapiens, UniProt P00533) | 78.3

Block 4
Compound: Cn1nc(C(F)(F)F)cc1-c1cnc(N2CCc3cc(S(=O)(=O)Nc4c(F)cc(Cl)cc4F)cc(N4CCCC4=O)c32)nc1
Effect on: cell-free assay
Concentration: 10 µM
target | inhibition
HTR2A (Homo sapiens, UniProt P28223) | 8.54%
OPRD1 (Homo sapiens, UniProt P41143) | 28.7%
CHRM3 (Homo sapiens, UniProt P20309) | 7.26%
OPRK1 (Homo sapiens, UniProt P41145) | 14.6%
DRD5 (Homo sapiens, UniProt P21918) | 42.5%
OPRM1 (Homo sapiens, UniProt P35372) | 9.44%
CHRM1 (Homo sapiens, UniProt P11229) | -15.4%

Further values, each from its own experiment
SMILES | target | endpoint | value
N=C(N)c1ccc2nc(-c3cc(CC(=O)N[C@@H](CC(=O)O)C(=O)O)cc(-c4cc(S(N)(=O)=O)ccc4O)c3O)[nH]c2c1 | Coagulation factor VII (F7, Homo sapiens, UniProt P08709) | IC50 | 0.0367 µM

For quick reference, copied from above (block 1):
Structure (SMILES) | inhibition [%]
O=C1C=C2C(=CCOC2O)O1 (stereo not drawn) | -5
CC(C)=CCOc1c2occc2cc2ccc(=O)oc12 | 7
C[C@@H]1O[C@@H](O[C@H]2C[C@@H](O)[C@]3(CO)[C@H]4[C@H](O)C[C@]5(C)[C@@H](C6=CC(=O)OC6)CC[C@]5(O)[C@@H]4CC[C@]3(O)C2)[C@H](O)[C@H](O)[C@H]1O | -4
